Measured values from different studies.
A part holds a random share of what one study measured. Changes are numbered by the printed parent chain.

Block 1
Target: Interferon regulatory factor 7, full length, phosphomimetic (IRF7, Homo sapiens, UniProt Q92985, residues 1-503, S101K/S471D/S472D/S475D/S476D/S477D/S483D/S484D/S487D)
Method: protein-binding microarray
Form: double-stranded DNA, one strand shown
Medium: in vitro
Tested at: 250 nM
Setting: 60-bp whole probe
With: salmon DNA 0.4 mg/ml
Reference: random background probes
Direction: higher = stronger binding
All sequences stand within: GCCTAGCAC … GTCTTGATTCGCTTGACGCTGCTG
Residues (chain): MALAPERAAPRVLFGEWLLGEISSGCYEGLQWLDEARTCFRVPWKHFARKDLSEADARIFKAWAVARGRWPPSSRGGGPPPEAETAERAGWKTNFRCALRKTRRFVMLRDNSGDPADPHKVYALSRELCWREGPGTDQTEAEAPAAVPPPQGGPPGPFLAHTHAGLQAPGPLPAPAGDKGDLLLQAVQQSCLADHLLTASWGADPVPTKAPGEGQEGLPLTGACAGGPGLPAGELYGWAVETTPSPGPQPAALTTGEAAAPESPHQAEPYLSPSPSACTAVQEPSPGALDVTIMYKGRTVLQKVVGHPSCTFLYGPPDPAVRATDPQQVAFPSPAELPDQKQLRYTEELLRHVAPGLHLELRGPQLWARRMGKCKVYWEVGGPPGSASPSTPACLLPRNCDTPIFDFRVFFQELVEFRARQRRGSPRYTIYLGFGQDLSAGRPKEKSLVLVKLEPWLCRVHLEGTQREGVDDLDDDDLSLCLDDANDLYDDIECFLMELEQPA
Sequence	log fluorescence
GACGGCTTCCTTATCCTGACGTGCTAG	0.0219 z-score
TCAGGTCACTCTCTGGGACTGTGCTAG	-0.605 z-score
GTTGCTCTCCGGGGTCTGTGAGTGCTA	-0.284 z-score
GACGATATCAGTTTCAAGACGTGCTAG	0.327 z-score
GACGGTTTCCATTTCCTGACGTGCTAG	8.82 z-score
TCAGGACTCAGGTCTCCCACTGTGCTA	-0.0892 z-score
TCCATTTTTACCCTCCTTACGTGCTAG	1.09 z-score
TTAGGTCTCCTTTCCCTTTAGTGCTAG	1.69 z-score
AACGAACTGGGGACTGGAGACGTGCTA	-0.552 z-score
CTAGATTTCGGGACTGGATTAGTGCTA	0.749 z-score
TTAGATATTAGTTTCGATTAGTGCTAG	9.56 z-score
GACGGTATCCCTTTCCTGACGTGCTAG	0.723 z-score
TTAGAACTGCTTATCCTTTAGTGCTAG	0.0469 z-score
GACGAACTTGGGTTTCGAGACGTGCTA	2.58 z-score
TCATGTATATATTTTAAACTGTGCTAG	0.274 z-score
TTAGAACTGAGACTTGATTAGTGCTAG	-0.251 z-score
GACGATTTCAGGTATCGAGACGTGCTA	0.459 z-score
ATAGATATCAGTATCGATTAGTGCTAG	0.571 z-score
AATCATTTTAGTTTTCATTAGTGCTAG	1.35 z-score
TTCGGTCTCGGTTTCGGTTAGTGCTAG	11 z-score
ATGATTGGTTGAACATGAACGTGCTAG	-0.00416 z-score
GACGGACGGGGGTATCGGGACGTGCTA	1.15 z-score
CAGTTTCTCTTTCCTTCTTGGTGCTAG	9.57 z-score

Block 2
Target: ABI1, truncated, D143A, DHFR fusion (Arabidopsis thaliana, UniProt P49597)
Method: DHFR PCA, dose-response
Medium: yeast
Setting: Hill fit, not affinity, not high confidence
With: (+)-ABA, dose series
Direction: lower = more sensitive
Starting sequence: PYL1, truncated, DHFR fusion (Arabidopsis thaliana, UniProt Q8VZS8); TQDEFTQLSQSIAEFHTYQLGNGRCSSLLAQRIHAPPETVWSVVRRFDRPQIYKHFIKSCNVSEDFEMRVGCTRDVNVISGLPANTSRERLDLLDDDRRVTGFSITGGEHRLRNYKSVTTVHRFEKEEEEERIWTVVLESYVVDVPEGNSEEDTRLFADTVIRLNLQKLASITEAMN
Substitution	ABA EC50 [µM]
A158Y	0.152
V143D	15.8
F47G	86.9
V76G	8.72
P83Y	358
R74N	2.95
T120P	1570
F157S	1090
S87D	1100
V142P	1.46
V143E	1.99
L112R	15.7
V118G	987
H16W	850
V143P	3.02
I33Q	3.44
I162F	16.7

Block 3
Target: RING finger protein unkempt homolog, zinc fingers 1-6, GST-SBP tag (UNK, Homo sapiens, UniProt Q9C0B0, residues 30-357)
Method: RNA Bind-n-Seq
Form: RNA
Medium: in vitro
Tested at: not given
Setting: RNA with constant flanks, human-mouse chimeric sites, ends assumed
Reference: input RNA pool
Direction: higher = stronger binding
Sequence	bound/input enrichment
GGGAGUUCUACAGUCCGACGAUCAAAGUGGACUAUGGUGAGUACAUGGAUAAAAACAAUGUGAGGCGGCAAGCAACAACAAUCAUAGCUGAUAACAUUAUAUUUCUGAGUGACCAGACAAAAGAGAAGGAAUAGAACGGAUGACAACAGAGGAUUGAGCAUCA	2.07 ratio
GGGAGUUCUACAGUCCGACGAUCUUAAUCCCCUUUACUGCUCCACCACUGCUCAUGGUAAUAACAAAGUCUUAUAUCCCCGUCCUAGCUUUUACUCAGAUGGCUUAUGGAGCCGGUUUCCUAGCUUUCUUGGGAGGGAUCAGACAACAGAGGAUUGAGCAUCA	0.571 ratio
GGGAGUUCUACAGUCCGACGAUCUUGAAAACUGAUUCAAGUAAGUUUGAGUAUCACAAUGUUAGCUUUCUAAUUCCAUAAAAGUACUUGGUUUUUACAGUAACCCCACAUACAUCACCCCAGCGCCAUUUGUAAAGAGCAACUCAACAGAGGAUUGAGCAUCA	0.837 ratio
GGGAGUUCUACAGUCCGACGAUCGCCACCAAUUCCAGCCAACAUGACCCUUGCUGCCUACAAGGAGAAGAUGAAGGAGCUCCCGCUGGUGUCCUUGUUCUGCUCCUGCUUCCUGGCCGAUCCCCUGAAUAAGUCGUCCUACAACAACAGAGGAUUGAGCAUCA	0.227 ratio
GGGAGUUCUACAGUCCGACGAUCGUUCGGCUUUGGGAUCAUGCCACAAUGACAGAAGUGAAAUCUCUGAAUUUUAAUAUGUCUGUUAGCAGUAUGGAAUAUAUUCCUGAAGGAGAGAUUUUGGUUAUUACUUAUGGACGAUCUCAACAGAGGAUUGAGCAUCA	1.07 ratio
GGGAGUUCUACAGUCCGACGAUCAGAAUCUUGGGACUGUUUUACUUAAUUGGUCAUUGAUAUCUCAACAAACAUGGAGAUAAGAUUAGAAAUCUUGACAUCAACAGGUAUUAAGCAGAAAAAACCCUGGCCACGUGUCUCCUGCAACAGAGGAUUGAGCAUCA	0.151 ratio
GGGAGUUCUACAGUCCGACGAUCGAUAAGAAAAGCUUGUUGGAGACCCGAUUGCAUGUCACUGGUAGAGACCUGAGGUGUCAAAUAGCUGAAACUUUCGGAUUUCAAGAAAAUUACAUCAAGAUCGUAAUAAAUAAGAAGCAGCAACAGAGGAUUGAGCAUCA	0.463 ratio
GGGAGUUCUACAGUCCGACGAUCCACGUGUCUGCAGUACUUGAUGUGGACUACUCUCCCACUGGGAAGGAAUUUGUGUCUGCCAGCUUUGAUAAGUCUAUUCGAAUCUUUCCUGUGGACAAGAGCCGAAGCAGGGAAGUGUAUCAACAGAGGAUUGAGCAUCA	0.254 ratio
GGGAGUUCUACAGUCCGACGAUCCACAGAGGAGAUCUGCUGUUCCUCACAAAUUUCCGGGAGGACCCCAUCAGAGCUGGUGAAAUAGUUGUUUUUAAGGUUGAAGGACGAGACAUUCCGAUAGUUCACAGAGUAAUCAAGGUUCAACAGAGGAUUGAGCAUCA	4.1 ratio
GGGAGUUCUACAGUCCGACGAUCGUGACUGGUGUUAAGAUUUCCCCUCAGCAAAGAAGUGCAGUAGUCACAAUAAUCCCUUCUGUGGUGAGUGCCAGUCAGAUUGUGGAGCUGGUCCCAGACCUCAGUUUAGACAUGGGAACUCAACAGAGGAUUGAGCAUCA	0.249 ratio
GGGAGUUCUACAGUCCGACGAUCGAUCCACAGUGGUCUGAGGAGCAACUCAUUGCUGCAAAAUUUUGCUUUGCUGGCCUUCUUAUAGGCCAGACUGAAGUGGACAUCAUGAGUCAUGCCACACAAGCUAUUUUUGAAAUUCUGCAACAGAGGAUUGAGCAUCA	0.17 ratio

Block 4
Sequence: B1 (TRIM3 RING domain)
Method: yeast two-hybrid
Medium: yeast
Setting: mostly zero background
Reference: not given
Direction: higher = stronger interaction
B1: TRIM3 RING domain (UniProt O75382); chain VQPMDKQFLVCSICLDRYQCPKVLPCLHTFCERCLQNYIPAQSLTLSCPVCRQTSILPEQGV
target	lacZ reporter activity
UBE2R2 UBC core domain (UniProt Q712K3)	0
UBE2D2 UBC core domain (UniProt P62837)	0
UBE2I UBC core domain (UniProt P63279)	0
UBE2M UBC core domain (UniProt P61081)	0
UBE2L3 UBC core domain (UniProt P68036)	0
UBE2O UBC core domain (UniProt Q9C0C9)	0
UBE2D4 UBC core domain (UniProt Q9Y2X8)	0
UBE2G1 UBC core domain (UniProt P62253)	0
UBE2Q1 UBC core domain (UniProt Q7Z7E8)	0
UBE2S UBC core domain (UniProt Q16763)	0
UBE2B UBC core domain (UniProt P63146)	0
UBE2D1 UBC core domain (UniProt P51668)	0

Block 5
Target: CCND2, cyclin fold, Cln2 fusion (human)
Method: yeast growth competition, sequencing
Medium: yeast
Setting: strong parent motif
Reference: not given
Direction: higher = stronger binding
Starting sequence: E2F1 docking peptide (human); PPVKRRLDFETDH
Substitution	normalised enrichment score
R6P	-0.204
D12A	1.64
L7Y	0.159
K4N	1.26
K4M	1.78
D12L	1.47
D8C	2.16
T11Y	2.08
K4W	0.463
R6A	0.997
V3R	0.154
L7M	0.646
V3K	0.794
